Measurements pooled from the literature.
Every numbered part comes from another study and shows a few of its results, in no order.

Block 1
Target: PABPC1L2, full length, GST fusion (mouse, UniProt A0ABA7IW68)
Method: RNAcompete
Molecule type: RNA
Matrix: in vitro
Concentration: 20 nM
Notes: 7-mer, probes averaged, single round
Reference: mean of 7-mers
Reading: higher = stronger binding
Target sequence (chain): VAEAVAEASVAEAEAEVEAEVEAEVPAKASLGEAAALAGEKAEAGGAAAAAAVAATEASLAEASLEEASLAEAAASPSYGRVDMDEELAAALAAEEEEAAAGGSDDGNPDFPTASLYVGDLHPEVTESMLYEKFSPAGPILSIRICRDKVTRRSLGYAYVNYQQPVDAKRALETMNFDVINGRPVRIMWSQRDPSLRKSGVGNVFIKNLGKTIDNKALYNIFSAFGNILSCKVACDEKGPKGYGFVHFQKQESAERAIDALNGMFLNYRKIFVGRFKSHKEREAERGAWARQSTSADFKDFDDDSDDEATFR
With `UUUUGCC` the 7-mer Z-score was -0.378.
`AGUGAAG` has a 7-mer Z-score of 0.0877.
With `UUGGUUA` the 7-mer Z-score was -0.298.
`UUGUAAC` has a 7-mer Z-score of -0.264.
For `AACCGGU`, the 7-mer Z-score was 0.0189.
For `AACGGGC`, the 7-mer Z-score was 0.269.
`CCUCAAC` gave a 7-mer Z-score of -0.286.
`GGUGUUA` has a 7-mer Z-score of -0.05.
The 7-mer Z-score of `UCUCAAG` is reported as -0.237.
`UCUUAUU` gave a 7-mer Z-score of -0.304.
For `UAUUUUA`, the 7-mer Z-score was -0.168.
The 7-mer Z-score of `AGGGUCG` is reported as 0.111.
`GAUGGAC` has a 7-mer Z-score of -0.0391.
With `GCGGCUA` the 7-mer Z-score was -0.0591.
`UAAAACA` gave a 7-mer Z-score of 4.47.
`UCCCGGG` gave a 7-mer Z-score of -0.316.
`AAUCUAA` has a 7-mer Z-score of 0.066.
`CGACUCC` gave a 7-mer Z-score of -0.231.
For `CGACAGC`, the 7-mer Z-score was -0.0482.
For `CACUAUG`, the 7-mer Z-score was -0.13.
`AAAUGCG` has a 7-mer Z-score of 1.32.

Block 2
Target: Interferon regulatory factor 5, full length, phosphomimetic (IRF5, Homo sapiens, UniProt Q13568-2, residues 1-514, K96S/S451D/S453D/S456D/S462D)
Method: protein-binding microarray
Molecule type: double-stranded DNA, one strand shown
Matrix: in vitro
Concentration: 250 nM
Notes: 60-bp whole probe
Added: salmon DNA 0.4 mg/ml
Reference: random background probes
Reading: higher = stronger binding
Shared flanks, not repeated: GCCTAGCAC … GTCTTGATTCGCTTGACGCTGCTG
For `GACGGACTGGGGTTTCGGGAGGTGCTA`, the log fluorescence was 1.07 z-score.
`ATGATTGGTTGAACATGAACGTGCTAG` has a log fluorescence of 0.327 z-score.
The log fluorescence of `TCAAAACTCACTCATGGCACTGTGCTA` is reported as -0.156 z-score.
With `TTTCTTTTTGCACTCTCTACGTGCTAG` the log fluorescence was 5.52 z-score.
With `TTAGGCTTCGACTTTCGGTTAGTGCTA` the log fluorescence was 9.05 z-score.
The log fluorescence of `GACGATTTCAGTTTCGTGACGTGCTAG` is reported as 4.29 z-score.
For `GTCGAACTGGGGTTTCGAGACGTGCTA`, the log fluorescence was 1.15 z-score.
The log fluorescence of `TCAGTGCTCATTTTTTTACTGTGCTAG` is reported as 0.528 z-score.
`GCCGGTTTCGGTTCCGGGACGTGCTAG` has a log fluorescence of 10.3 z-score.
`GACGATCTCAGACTGCAGACGTGCTAG` gave a log fluorescence of -0.233 z-score.
`TCACCTTCACCTCTCTGACTGTGCTAG` gave a log fluorescence of 0.579 z-score.
`TCACCCATGAGTCTCAAACTGTGCTAG` has a log fluorescence of -0.113 z-score.
`AATTTTTTTTCTAACTAAAAGTGCTAG` gave a log fluorescence of 1.28 z-score.
`GACGGTATCGGGACTGGAGACGTGCTA` has a log fluorescence of 1.13 z-score.
With `ACTCGTTTACATTTTCCAAAGTGCTAG` the log fluorescence was 0.736 z-score.
`TGTTACATTTATATCTTTGCGTGCTAG` gave a log fluorescence of 0.798 z-score.

Block 3
Target: RNA binding protein fox-1 homolog 2, RRM domain, GST-SBP tag (RBFOX2, Homo sapiens, UniProt O43251-10, residues 100-194)
Method: RNA Bind-n-Seq
Molecule type: RNA
Matrix: in vitro
Concentration: 365 nM
Notes: natural RNA segment, single round, ends assumed
Reference: no-protein control
Reading: higher = stronger binding
Shared flanks, not repeated: GGGAGUUCUACAGUCCGACGAUC … UGGAAUUCUCGGGUGCCAA
Target sequence (chain): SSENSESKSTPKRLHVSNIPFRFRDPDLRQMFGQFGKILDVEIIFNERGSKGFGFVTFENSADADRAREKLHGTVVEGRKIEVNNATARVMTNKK
`ACUCCGUCUCAAAAAGAAAAAGUUUGGAUCAGGCAGGGUGGCUCACACCUGUAAUCCCUGCACUUUGGGAGGCCAAGGUGGGAGGAUCAGUUGAGCCCCAGAGUUCAAGA` — result for “RBNS enrichment (R)”: 0.396.
For `CUGGCUGAUGCUCAGAGGCCUCCUUAGAGAGGACACUCACUCCCCUCCCACCAGCUGGAUGCCCAUUUCUGAGCUCAGUCACUGAAGUGAGAGUGUGCUCCCCCAAGGGA`, “RBNS enrichment (R)” read 0.291.
`UCCUGCGAGCUCCUUGGGUCCUGCAAUCUCCAGGGCUGCCCCUGUAGGUUGCUUAAAAGGGACAGUAUUCUCAGUGCUCUCCUACCCCACCUCAUGCCUGGCCCCCCUCC`: “RBNS enrichment (R)” 0.572.
`CCUGCGGGCUUUUCCCCGGUCCCUUGAGACCUCAGCCAUGAGGAGUUGCUGUUUGUUUGACAAAGAAACCCAAGUGGGGGCAGAGGGCAGAGGCUGGAGGCAGGGCCUUG` — result for “RBNS enrichment (R)”: 0.48.
For `CUUGGACGUGUCCCCUUUAUUUCAUGAGCCUUUCCCCGUUUGGGUUAAGAAGCUGUUAUGCUGUGGGAGCCAGGAGCCGUGUGUUCCUGCCAUCAGCUUUUCUCUGGUGA`, “RBNS enrichment (R)” read 0.316.
`CUACCCUUGCUCACUGACUUCCUGUUGUAACACACUUUCCUUACGGAGCCUGGCUGUUUCACAGUAUUUCAUGAAUUUACCCACACAGGUGUGAUCCUCCUUGAGCAUUG` — result for “RBNS enrichment (R)”: 0.279.
For `GCAUUCCCCCCAAGUUUAUUUCUACUUUCCAGAAACAAGCCACGGGAAGGGAAGGAACCUGCAGCAGGGUUUCGAAGACAGCCAGGCCCUCCGUGAUUGAGGGCUCAUAU`, “RBNS enrichment (R)” read 0.244.
`CGACUUUCUGCCUGGAGUGUAUGACUGCACAUGACUCGGGGGUGGGGAAAGGGGUCGGCUGACCAUGCUCAUCUGCUGGUCCGUGGGACGGUGCCCAAGCCAGAGGCUGG` — result for “RBNS enrichment (R)”: 0.662.

Block 4
Target: Ras GTPase-activating protein-binding protein 1, C-terminal RGG region (G3BP1, Homo sapiens, UniProt Q13283)
Sequence of UniProt Q13283 (whole entry, looked up): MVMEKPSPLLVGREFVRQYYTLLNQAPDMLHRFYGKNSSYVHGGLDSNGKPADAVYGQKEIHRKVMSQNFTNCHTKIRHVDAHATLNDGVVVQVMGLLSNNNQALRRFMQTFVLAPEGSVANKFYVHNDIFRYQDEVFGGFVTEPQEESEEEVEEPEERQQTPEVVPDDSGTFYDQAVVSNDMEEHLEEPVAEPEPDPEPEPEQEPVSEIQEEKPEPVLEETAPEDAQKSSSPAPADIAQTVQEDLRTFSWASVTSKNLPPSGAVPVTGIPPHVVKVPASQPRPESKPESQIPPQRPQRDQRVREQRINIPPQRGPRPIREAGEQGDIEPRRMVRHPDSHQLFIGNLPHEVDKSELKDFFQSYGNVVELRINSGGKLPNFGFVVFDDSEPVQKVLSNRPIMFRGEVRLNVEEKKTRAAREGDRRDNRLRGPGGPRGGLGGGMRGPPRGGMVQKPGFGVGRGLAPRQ
Method: RNA Bind-n-Seq
Molecule type: RNA
Matrix: in vitro
Concentration: 1 µM
Notes: whole 134-nt RNA, ends assumed
Added: 150 mM KCl
Reference: input library
Reading: higher = stronger binding
Shared flanks, not repeated: GGGAGUUCUACAGUCCGACGAUC … UGGAAUUCUCGGGUGUCAAGG
The log2 enrichment of `UACCAAUUGGCCUUUAUUGACUGUAUCCAAAGGAUUUUUUGAAGGCACCAUUGCCAGCAAAGGUAAGUACCUAUUUCUCCCAUAGCACUU` is reported as -1.37.
The log2 enrichment of `CACAGACAACACGCACCCACACAGACACAGAGGGAAGGGGUUGGGAUGGGGACAGGGUGCACAGCAGGGCGAAAUAGGACCCCAGCCCCU` is reported as -0.115.
For `AGUCCUGUGCUACACAUCGUAUGUACCGAAUCGGUUUGGUUUUUUUGGUUUUUUUGGAAAGUAUUAUGUUACGCCGUUCGGAUCUGCACU`, the log2 enrichment was -1.78.
`GUCCUGUGCUACACAUCGUAUGUACCGAAUCGGGUUUUUGGGGUUUUUGGGUUUUUGGGAAAGUAUUAUGUUACGCCGUUCGGAUCUGCA` has a log2 enrichment of 0.451.
The log2 enrichment of `CUCAAGUCCUGUGCUACACAUCGUAUGUACCGAAUCGGGGUUGGGGUUGGUUGGAAAGUAUUAUGUUACGCCGUUCGGAUCUGCACUUCC` is reported as 0.00189.
For `UCCUCAAGUCCUGUGCUACACAUCGUAUGUACCGAAUCGGAAAGGAGGUGGAAAGUAUUAUGUUACGCCGUUCGGAUCUGCACUUCCAGC`, the log2 enrichment was -1.22.
`UCAAGUCCUGUGCUACACAUCGUAUGUACCGAAUCGGGGAAAGGAAAGGAAAGGGAAAGUAUUAUGUUACGCCGUUCGGAUCUGCACUUC` gave a log2 enrichment of -1.64.
`UGGCCCUGGUGGCAUGCGGGGAGGAAGAGGUGGCCUCAUGGAUCGUGGUGGUCCCGGUGGAAUGUUCACAGGUGGCCGUGGUGGAGACAG` gave a log2 enrichment of 3.38.
`ACCAUGCAGGUGGGCAUCUUUGGGAAGUGGGGCAAGGGGGGGAUAGGGAGGGGGAUAACACUUUGGGAACAGGUGGUCCCAGGUCGUUUC` gave a log2 enrichment of 1.75.

Some of these lines once more (block 1):
`CCUCAAC` gave a 7-mer Z-score of -0.286.
`GGUGUUA` has a 7-mer Z-score of -0.05.
The 7-mer Z-score of `UCUCAAG` is reported as -0.237.
`UCUUAUU` gave a 7-mer Z-score of -0.304.
For `UAUUUUA`, the 7-mer Z-score was -0.168.
The 7-mer Z-score of `AGGGUCG` is reported as 0.111.
`GAUGGAC` has a 7-mer Z-score of -0.0391.
